# Results pooled from the literature.
# Parts stem from different laboratories: compare values within a part only.
# UniProt Q99558, sequence (whole entry, looked up): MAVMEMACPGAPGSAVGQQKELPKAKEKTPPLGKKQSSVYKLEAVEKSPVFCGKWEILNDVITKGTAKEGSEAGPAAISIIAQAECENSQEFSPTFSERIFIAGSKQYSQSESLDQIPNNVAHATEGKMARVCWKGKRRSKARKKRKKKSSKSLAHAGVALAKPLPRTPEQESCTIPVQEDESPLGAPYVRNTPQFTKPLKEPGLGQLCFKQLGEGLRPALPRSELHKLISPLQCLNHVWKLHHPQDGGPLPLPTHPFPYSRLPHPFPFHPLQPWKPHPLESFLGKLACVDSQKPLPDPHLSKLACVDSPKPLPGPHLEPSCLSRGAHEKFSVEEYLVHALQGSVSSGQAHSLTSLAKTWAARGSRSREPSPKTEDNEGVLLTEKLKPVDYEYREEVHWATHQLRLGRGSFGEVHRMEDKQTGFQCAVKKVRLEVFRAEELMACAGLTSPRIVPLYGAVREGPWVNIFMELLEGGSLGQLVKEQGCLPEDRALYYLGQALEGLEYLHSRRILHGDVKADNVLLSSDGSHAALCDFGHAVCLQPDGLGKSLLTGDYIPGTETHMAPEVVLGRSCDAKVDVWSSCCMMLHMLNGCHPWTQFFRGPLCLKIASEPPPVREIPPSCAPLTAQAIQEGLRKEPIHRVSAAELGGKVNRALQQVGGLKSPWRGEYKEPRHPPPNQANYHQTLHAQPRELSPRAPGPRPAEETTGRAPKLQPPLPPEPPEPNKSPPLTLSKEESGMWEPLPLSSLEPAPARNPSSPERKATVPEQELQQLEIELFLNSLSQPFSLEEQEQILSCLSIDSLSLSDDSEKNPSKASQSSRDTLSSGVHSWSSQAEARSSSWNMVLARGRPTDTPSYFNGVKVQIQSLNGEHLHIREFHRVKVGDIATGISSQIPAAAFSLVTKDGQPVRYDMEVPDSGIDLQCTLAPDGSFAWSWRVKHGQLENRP
# UniProt Q9BQI3, sequence (whole entry, looked up): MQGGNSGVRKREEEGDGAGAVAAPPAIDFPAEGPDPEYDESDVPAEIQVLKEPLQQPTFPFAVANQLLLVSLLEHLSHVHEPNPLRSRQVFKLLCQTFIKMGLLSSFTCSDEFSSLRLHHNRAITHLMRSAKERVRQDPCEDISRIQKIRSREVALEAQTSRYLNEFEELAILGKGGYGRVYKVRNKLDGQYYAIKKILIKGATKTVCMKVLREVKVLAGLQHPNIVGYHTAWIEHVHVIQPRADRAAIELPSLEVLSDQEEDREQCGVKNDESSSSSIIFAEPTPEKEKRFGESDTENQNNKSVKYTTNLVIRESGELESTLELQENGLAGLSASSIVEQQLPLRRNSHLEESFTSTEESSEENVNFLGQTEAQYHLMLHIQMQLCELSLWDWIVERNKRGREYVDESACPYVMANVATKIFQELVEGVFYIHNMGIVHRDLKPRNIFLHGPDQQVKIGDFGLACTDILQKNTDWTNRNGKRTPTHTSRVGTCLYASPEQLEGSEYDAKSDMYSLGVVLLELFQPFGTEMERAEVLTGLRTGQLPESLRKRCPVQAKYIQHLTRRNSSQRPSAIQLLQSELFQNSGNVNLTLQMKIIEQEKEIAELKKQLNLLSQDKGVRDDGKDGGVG
# UniProt Q15349, sequence (whole entry, looked up): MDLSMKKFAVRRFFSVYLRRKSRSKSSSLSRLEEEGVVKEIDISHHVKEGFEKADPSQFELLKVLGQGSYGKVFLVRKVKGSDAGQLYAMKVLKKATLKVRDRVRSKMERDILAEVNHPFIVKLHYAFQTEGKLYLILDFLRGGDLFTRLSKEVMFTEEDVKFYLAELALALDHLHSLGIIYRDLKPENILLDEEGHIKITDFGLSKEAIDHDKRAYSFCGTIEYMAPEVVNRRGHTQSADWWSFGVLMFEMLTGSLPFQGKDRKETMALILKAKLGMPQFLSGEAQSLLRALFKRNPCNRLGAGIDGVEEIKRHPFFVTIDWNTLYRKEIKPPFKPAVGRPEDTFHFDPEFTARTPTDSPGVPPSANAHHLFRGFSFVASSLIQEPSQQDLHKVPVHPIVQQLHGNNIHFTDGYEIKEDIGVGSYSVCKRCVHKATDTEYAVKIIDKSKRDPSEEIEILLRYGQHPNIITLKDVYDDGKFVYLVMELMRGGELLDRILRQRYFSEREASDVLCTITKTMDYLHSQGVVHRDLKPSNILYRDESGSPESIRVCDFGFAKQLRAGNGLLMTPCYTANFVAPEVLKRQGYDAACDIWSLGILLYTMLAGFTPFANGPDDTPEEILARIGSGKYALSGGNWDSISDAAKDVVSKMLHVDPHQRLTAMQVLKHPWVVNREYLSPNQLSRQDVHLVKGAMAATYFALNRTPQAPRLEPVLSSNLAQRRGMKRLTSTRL
# UniProt Q9NRM7, sequence (whole entry, looked up): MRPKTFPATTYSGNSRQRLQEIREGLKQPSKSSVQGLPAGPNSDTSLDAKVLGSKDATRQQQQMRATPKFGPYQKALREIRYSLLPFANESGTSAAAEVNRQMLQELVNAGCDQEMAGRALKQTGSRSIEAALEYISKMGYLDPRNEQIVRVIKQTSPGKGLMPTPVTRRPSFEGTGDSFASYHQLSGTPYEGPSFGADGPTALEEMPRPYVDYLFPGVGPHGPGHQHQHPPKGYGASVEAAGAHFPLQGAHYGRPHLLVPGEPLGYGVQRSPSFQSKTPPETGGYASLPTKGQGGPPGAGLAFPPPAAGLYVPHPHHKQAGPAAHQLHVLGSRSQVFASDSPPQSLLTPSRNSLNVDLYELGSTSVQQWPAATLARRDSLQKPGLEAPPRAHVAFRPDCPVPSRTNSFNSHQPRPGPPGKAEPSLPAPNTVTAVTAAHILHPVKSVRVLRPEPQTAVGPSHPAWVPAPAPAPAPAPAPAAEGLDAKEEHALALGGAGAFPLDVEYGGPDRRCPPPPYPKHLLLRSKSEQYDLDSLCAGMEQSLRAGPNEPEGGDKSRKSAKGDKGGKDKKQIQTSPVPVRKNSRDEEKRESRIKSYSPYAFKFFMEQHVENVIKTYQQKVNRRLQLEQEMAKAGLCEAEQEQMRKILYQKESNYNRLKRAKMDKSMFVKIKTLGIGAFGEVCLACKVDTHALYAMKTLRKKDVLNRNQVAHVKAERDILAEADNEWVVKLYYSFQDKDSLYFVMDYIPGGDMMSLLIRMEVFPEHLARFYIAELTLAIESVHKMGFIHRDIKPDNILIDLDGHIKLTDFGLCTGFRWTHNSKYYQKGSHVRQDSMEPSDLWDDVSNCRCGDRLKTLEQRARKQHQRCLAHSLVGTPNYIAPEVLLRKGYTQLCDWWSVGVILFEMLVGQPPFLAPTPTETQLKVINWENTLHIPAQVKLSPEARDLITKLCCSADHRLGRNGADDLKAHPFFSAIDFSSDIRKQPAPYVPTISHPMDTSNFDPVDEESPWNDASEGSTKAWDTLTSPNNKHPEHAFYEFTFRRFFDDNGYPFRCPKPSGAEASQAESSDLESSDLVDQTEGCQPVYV

# Series 1
# SMILES: C=CCc1ccc(O)c(-c2cc(CC=C)ccc2O)c1
# Technique: inside-out patch clamp
# Tested at: 30 µM
# ANO1 del476-501/E659A/K629A: Anoctamin-1 (ANO1, Homo sapiens, UniProt Q5XXA6, del476-501/E659A/K629A)
# UniProt Q5XXA6, sequence (whole entry, unmodified, looked up): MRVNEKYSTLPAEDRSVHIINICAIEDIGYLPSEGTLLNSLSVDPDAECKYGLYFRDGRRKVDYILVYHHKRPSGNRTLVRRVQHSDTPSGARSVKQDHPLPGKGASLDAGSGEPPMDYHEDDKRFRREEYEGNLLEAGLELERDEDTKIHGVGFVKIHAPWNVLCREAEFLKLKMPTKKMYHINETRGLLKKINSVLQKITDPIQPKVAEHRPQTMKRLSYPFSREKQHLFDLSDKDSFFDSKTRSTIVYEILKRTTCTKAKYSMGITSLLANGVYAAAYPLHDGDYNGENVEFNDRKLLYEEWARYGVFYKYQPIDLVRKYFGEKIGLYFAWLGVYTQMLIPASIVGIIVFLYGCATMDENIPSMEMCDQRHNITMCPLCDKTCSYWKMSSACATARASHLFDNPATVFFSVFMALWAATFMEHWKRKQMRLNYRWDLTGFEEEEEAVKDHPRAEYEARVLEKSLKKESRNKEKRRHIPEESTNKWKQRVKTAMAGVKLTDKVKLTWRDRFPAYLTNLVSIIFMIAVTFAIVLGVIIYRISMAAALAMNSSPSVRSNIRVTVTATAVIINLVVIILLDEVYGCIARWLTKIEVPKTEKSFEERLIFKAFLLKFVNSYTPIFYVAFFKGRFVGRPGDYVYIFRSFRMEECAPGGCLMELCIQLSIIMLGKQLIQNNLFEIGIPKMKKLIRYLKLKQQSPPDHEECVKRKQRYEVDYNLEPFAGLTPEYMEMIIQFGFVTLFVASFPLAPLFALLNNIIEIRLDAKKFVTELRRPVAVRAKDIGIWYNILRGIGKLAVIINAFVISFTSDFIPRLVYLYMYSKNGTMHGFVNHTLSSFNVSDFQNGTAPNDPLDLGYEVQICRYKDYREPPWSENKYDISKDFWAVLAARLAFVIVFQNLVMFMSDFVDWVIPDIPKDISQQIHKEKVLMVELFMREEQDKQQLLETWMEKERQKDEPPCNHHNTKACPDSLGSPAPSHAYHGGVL
# ANO1 del476-501/E649A: Anoctamin-1 (ANO1, Homo sapiens, UniProt Q5XXA6, del476-501/E649A)
target,assay,conditions,normalized current
"Anoctamin-1 (ANO1, Homo sapiens, UniProt Q5XXA6, del476-501/K629A)",chloride current,membrane voltage -40 mV,-0.241
ANO1 del476-501/E659A/K629A,chloride current,membrane voltage -60 mV,-0.383
"Anoctamin-1 (ANO1, Homo sapiens, UniProt Q5XXA6, del476-501/E659A)",chloride current,membrane voltage 20 mV,0.166
ANO1 del476-501/E649A,ion current,E623A mutant at 40 mV,0.266
ANO1 del476-501/E659A/K629A,chloride current,membrane voltage 80 mV,0.629
ANO1 del476-501/E659A/K629A,chloride current,membrane voltage 60 mV,0.411
ANO1 del476-501/E649A,ion current,E623A mutant at 60 mV,0.416
ANO1 del476-501/E659A/K629A,chloride current,membrane voltage 0 mV,0.0019
TMEM16A (human) K603A/E623A,chloride current,membrane voltage 0 mV,-0.0005
ANO1 del476-501/E659A/K629A,chloride current,membrane voltage 40 mV,0.284

# Series 2
# Target: Calcium/calmodulin-dependent protein kinase type II subunit alpha (CAMK2A, Homo sapiens, UniProt Q9UQM7)
# UniProt Q9UQM7, sequence (whole entry, looked up): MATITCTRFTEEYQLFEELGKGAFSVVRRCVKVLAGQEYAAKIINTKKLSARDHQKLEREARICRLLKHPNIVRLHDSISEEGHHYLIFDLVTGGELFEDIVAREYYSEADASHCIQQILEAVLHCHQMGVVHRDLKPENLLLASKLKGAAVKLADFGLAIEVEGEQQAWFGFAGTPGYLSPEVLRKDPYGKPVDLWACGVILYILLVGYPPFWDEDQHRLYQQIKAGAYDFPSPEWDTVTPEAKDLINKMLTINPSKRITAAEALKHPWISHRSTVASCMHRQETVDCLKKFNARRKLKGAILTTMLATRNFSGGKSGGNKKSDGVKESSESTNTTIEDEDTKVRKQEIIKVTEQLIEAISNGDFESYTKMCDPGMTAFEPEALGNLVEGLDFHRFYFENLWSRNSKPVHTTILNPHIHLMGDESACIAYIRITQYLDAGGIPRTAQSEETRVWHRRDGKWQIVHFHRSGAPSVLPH
# Effect on: enzyme activity
# Action: inhibitor
# Tested at: 10 µM
SMILES,inhibition [%]
COC(=O)[C@]12CCC(C)(C)C[C@H]1C1=CC[C@@H]3[C@@]4(C)CCC(=O)C(C)(C)[C@@H]4CC[C@@]3(C)[C@]1(C)CC2,-7
COc1ccc(/C=C/C(=O)C(C)(C)C(=O)/C=C/c2ccc(OC)c(OC)c2)cc1OC,-35
Nc1nc(/C(=C/CC(=O)O)C(=O)N[C@@H]2C(=O)N3C(C(=O)O)=CCS[C@H]23)cs1,-2
CCCCCC/C=C\CCCC(=O)O,-11
O=C(/C=C/c1ccc(O)c(O)c1)OC[C@H]1O[C@@H](OCCc2ccc(O)c(O)c2)[C@H](O)[C@@H](O)[C@@H]1O,-37
CCOC(=O)C1=C(C)NC(C)=C(C(=O)OCC)C1c1ccccc1/C=C/C(=O)OC(C)(C)C,-5
C[C@@H]1O[C@@H](c2c(O)c([C@@H]3O[C@H](CO)[C@@H](O)[C@H](O)[C@H]3O)c(O)c3c(=O)cc(-c4ccc(O)cc4)oc23)[C@H](O)[C@H](O)[C@H]1O,-61
NC1[C@H]2CN(c3nc4c(cc3F)c(=O)c(C(=O)O)cn4-c3ccc(F)cc3F)C[C@@H]12 (stereo partly shown),-9
CCCCCCC/C=C/C(=O)N1C(=O)C(C(C)=O)=C(O)[C@H]1CC(C)C,36
COCC(=O)O[C@]1(CCN(C)CCCc2nc3ccccc3[nH]2)CCc2cc(F)ccc2[C@@H]1C(C)C,0
CN1C(CCl)Nc2cc(Cl)c(S(N)(=O)=O)cc2S1(=O)=O (stereo not shown),-4

# Series 3
# Structure (SMILES): Ic1cccc(CSc2nnc(-c3ccncc3)o2)c1
# Effect on: enzyme activity
# Action: inhibitor
# Tested at: 0.5 µM
# Baseline: control
target,remaining activity [%]
"LCK (Homo sapiens, UniProt P06239)",98.5
"NEK6 (Homo sapiens, UniProt Q9HC98)",95.4
"NEK1 (Homo sapiens, UniProt Q96PY6)",95.5
"RPS6KA2 (Homo sapiens, UniProt Q15349)",101
"MERTK (Homo sapiens, UniProt Q12866)",96.4
"ULK2 (Homo sapiens, UniProt Q8IYT8)",111
"GSK3B (Homo sapiens, UniProt P49841)",59.8
"FRK (Homo sapiens, UniProt P42685)",85.5
"FGFR3 (Homo sapiens, UniProt P22607)",106
"FGFR1 (Homo sapiens, UniProt P11362)",92.4
"MAPKAPK2 (Homo sapiens, UniProt P49137)",93.5
"GRK7 (Homo sapiens, UniProt Q8WTQ7)",112
"MAP3K14 (Homo sapiens, UniProt Q99558)",88.3
"TBK1 (Homo sapiens, UniProt Q9UHD2)",103

# Series 4
# Structure (SMILES): CCC(=O)N[C@@H]1CC[C@H](C(=O)N(C)c2ccc(-c3nc4ccccc4o3)cc2)C1
# Effect on: cell-free assay
# Technique: competition with immobilised ligand
# Tested at: 1 µM
target,remaining binding [%]
"EIF2AK1 (Homo sapiens, UniProt Q9BQI3)",88
"Ribosomal protein S6 kinase alpha-3, C-terminal kinase domain (RPS6KA3, Homo sapiens, UniProt P51812)",91
"PIP4K2C (Homo sapiens, UniProt Q8TBX8)",100
"FLT1 (Homo sapiens, UniProt P17948)",100
"DSTYK (Homo sapiens, UniProt Q6XUX3)",93
"FLT3 (Homo sapiens, UniProt P36888, D835V/ITD)",94
"STK10 (Homo sapiens, UniProt O94804)",89
"Ribosomal protein S6 kinase alpha-6, C-terminal kinase domain (RPS6KA6, Homo sapiens, UniProt Q9UK32)",100
"ACVR2B (Homo sapiens, UniProt Q13705)",96
"LATS2 (Homo sapiens, UniProt Q9NRM7)",69
"RIOK2 (Homo sapiens, UniProt Q9BVS4)",100
"GRK4 (Homo sapiens, UniProt P32298)",100
"MINK1 (Homo sapiens, UniProt Q8N4C8)",96
"PRKG2 (Homo sapiens, UniProt Q13237)",92

# Repeated from above (series 3):
target,remaining activity [%]
"FGFR3 (Homo sapiens, UniProt P22607)",106
"FGFR1 (Homo sapiens, UniProt P11362)",92.4
"MAPKAPK2 (Homo sapiens, UniProt P49137)",93.5
